Assay results of several laboratories.
Each numbered part is a random draw from the data of one study; scales do not carry over between parts. Values joined by “and” are separate records of one study, mostly repeats; a detail may differ.
UniProt O96017, sequence (whole entry, looked up): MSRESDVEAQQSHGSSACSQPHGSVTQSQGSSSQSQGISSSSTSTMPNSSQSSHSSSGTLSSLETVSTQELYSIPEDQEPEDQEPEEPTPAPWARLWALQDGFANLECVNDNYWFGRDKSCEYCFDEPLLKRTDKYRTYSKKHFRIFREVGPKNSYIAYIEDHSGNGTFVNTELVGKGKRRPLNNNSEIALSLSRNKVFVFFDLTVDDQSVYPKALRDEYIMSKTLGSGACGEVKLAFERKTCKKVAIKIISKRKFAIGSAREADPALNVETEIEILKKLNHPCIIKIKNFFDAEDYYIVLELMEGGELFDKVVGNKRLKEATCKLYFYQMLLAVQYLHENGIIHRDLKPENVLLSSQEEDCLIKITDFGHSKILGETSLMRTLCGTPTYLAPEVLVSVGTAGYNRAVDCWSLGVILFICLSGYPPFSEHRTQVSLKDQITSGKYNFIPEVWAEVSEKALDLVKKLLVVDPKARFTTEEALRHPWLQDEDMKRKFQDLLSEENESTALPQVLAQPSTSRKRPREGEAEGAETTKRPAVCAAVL
UniProt Q8N752, sequence (whole entry, looked up): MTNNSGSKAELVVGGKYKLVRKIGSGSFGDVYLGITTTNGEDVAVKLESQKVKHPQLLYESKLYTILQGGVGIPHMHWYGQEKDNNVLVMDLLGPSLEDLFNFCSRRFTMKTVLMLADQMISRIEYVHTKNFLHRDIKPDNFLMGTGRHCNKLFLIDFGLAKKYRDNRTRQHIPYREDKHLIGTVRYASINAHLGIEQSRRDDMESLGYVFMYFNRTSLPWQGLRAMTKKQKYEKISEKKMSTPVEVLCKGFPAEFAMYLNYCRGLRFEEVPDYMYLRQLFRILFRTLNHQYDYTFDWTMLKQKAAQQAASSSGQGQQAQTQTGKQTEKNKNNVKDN
UniProt P30530, sequence (whole entry, looked up): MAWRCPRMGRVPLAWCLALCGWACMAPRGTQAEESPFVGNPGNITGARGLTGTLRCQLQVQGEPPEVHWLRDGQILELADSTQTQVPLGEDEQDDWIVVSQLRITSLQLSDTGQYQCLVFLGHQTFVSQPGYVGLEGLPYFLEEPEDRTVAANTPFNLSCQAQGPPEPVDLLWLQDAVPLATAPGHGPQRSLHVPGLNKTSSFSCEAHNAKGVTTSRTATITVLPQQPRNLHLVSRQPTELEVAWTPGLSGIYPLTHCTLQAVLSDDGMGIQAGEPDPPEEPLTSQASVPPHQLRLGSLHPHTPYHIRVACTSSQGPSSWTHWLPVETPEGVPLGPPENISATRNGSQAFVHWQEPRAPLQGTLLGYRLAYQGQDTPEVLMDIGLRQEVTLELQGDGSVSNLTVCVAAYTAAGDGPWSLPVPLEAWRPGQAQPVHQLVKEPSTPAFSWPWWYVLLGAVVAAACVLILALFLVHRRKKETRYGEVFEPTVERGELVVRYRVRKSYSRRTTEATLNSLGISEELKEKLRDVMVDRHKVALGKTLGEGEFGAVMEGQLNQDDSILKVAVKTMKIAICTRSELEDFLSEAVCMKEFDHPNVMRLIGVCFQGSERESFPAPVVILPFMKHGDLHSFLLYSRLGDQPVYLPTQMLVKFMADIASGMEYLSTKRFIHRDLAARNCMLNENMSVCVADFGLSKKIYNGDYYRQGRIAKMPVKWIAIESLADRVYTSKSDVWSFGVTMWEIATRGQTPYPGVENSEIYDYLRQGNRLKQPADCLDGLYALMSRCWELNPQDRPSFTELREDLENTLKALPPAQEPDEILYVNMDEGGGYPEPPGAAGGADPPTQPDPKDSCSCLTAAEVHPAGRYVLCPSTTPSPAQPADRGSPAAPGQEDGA
UniProt P42336, sequence (whole entry, unmodified, looked up): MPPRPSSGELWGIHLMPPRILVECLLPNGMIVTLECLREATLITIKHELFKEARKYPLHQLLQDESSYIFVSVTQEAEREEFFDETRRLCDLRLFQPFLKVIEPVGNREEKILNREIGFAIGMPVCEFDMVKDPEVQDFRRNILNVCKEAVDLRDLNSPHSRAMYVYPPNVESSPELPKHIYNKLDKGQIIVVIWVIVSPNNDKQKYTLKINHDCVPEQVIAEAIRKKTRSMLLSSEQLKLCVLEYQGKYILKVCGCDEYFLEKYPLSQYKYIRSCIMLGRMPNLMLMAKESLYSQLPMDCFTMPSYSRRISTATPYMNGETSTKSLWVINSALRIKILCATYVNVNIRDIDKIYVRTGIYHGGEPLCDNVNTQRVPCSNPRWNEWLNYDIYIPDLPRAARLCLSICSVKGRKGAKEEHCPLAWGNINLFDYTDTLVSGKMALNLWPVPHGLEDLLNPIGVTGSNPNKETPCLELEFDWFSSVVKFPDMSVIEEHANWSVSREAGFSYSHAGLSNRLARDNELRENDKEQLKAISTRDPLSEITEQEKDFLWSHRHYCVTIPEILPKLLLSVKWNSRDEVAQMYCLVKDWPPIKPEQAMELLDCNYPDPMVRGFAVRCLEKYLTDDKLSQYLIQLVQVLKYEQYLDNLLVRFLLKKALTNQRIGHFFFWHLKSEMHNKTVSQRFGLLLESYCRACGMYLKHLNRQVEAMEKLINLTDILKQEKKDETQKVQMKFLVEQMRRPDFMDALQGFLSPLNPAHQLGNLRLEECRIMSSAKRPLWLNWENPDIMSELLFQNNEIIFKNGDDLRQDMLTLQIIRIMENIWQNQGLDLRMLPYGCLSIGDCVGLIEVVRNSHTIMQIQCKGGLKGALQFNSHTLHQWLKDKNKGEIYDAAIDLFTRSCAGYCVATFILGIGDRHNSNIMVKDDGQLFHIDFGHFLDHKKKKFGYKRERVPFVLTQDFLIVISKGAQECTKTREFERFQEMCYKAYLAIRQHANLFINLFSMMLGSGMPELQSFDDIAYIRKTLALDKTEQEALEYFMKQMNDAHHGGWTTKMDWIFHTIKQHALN
UniProt Q9BWU1, sequence (whole entry, looked up): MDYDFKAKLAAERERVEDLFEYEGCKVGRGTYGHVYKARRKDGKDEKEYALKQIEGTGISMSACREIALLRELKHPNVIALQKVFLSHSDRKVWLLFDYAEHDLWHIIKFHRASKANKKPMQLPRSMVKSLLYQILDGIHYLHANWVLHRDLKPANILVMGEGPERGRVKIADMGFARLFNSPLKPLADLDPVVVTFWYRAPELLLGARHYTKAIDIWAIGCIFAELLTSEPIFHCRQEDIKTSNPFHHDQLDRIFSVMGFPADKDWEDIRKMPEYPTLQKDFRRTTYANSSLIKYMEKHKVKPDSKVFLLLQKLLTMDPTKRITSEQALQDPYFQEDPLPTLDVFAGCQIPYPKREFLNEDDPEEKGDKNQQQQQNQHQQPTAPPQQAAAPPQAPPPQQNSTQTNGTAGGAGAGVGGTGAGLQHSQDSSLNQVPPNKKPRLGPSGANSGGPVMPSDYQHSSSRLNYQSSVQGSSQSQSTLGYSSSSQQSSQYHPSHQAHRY
UniProt P11362, sequence (whole entry, looked up): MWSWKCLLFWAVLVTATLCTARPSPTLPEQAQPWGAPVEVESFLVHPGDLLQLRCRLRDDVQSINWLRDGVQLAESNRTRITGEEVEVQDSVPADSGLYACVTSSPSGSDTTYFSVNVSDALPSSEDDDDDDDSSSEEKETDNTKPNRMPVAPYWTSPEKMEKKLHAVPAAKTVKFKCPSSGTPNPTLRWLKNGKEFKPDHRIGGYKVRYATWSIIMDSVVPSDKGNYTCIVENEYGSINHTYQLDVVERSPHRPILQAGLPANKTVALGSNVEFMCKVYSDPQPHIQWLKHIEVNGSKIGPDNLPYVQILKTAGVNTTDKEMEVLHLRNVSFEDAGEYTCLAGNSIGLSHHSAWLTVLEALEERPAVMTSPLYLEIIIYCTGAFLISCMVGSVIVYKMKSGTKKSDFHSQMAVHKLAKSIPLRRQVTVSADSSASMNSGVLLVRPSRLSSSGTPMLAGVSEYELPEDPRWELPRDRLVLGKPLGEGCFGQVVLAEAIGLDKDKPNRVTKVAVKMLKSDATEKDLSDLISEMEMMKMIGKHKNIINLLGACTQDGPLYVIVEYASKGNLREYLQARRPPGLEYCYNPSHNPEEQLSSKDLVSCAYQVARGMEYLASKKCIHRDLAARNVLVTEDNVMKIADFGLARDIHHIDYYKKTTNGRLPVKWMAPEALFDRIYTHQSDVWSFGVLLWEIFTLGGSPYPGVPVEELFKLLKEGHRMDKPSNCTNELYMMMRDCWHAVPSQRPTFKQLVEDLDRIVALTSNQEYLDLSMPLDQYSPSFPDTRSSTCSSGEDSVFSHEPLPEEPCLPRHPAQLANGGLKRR
UniProt O15111, sequence (whole entry, looked up): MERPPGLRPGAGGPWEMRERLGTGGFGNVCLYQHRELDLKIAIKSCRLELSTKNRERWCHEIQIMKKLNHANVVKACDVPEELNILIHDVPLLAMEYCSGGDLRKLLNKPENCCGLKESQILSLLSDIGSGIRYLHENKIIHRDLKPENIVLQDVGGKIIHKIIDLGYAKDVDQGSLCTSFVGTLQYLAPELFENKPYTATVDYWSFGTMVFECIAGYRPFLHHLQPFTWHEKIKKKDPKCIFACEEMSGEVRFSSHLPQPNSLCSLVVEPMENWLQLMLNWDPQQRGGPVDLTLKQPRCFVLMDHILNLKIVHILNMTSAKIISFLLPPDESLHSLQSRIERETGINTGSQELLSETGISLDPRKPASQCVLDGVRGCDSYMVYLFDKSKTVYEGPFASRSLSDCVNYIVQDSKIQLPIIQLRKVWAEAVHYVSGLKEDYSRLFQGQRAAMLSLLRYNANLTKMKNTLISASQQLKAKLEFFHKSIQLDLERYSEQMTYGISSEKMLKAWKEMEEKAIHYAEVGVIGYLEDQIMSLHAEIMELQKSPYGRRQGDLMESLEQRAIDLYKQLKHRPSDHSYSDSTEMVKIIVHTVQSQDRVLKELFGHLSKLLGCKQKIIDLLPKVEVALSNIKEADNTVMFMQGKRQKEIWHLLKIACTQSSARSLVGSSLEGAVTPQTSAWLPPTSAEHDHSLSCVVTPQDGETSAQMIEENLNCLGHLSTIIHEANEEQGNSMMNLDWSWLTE

Block 1 — organism: Sarcocystis neurona; effect on: parasite growth; tested at: 10 µM; notes: second screen; baseline: untreated; endpoint: log2 fold change
Br.O=C1CC2(CCCC2)CC(=O)N1CCNCC1COc2ccccc2O1 (stereo not shown): -0.56
CNCCC(Oc1ccc(C(F)(F)F)cc1)c1ccccc1.Cl (stereo not shown): 0.39
Cc1onc(-c2ccccc2)c1C(=O)N[C@@H]1C(=O)N2[C@@H]1SC(C)(C)[C@@H]2C(=O)O: 0.28
Nc1ccc2cn[nH]c2c1: 0.5
CCN(CC)CCNC(=O)c1cc(Cl)c(N)cc1OC.Cl: 0.37
CN1CCN(c2c(F)cc3c(=O)c(C(=O)O)cn4c3c2SCC4)CC1.Cl: 0.32
CC(COc1ccccc1Cc1ccccc1)N1CCCCC1.O=P(O)(O)O (stereo not shown): -0.19

Block 2 — tested at: 1 µM; endpoint: remaining binding
SMILES: Cc1nc(N2CC[C@@H](O)C2)ncc1-c1cc(C(F)(F)F)cc2[nH]ncc12
MAP/microtubule affinity-regulating kinase 4 (MARK4, Homo sapiens, UniProt Q96L34); binding, competition with immobilised ligand: 80%
Tyrosine-protein kinase receptor UFO (AXL, Homo sapiens, UniProt P30530); binding, competition with immobilised ligand: 80%
Hepatocyte growth factor receptor (MET, Homo sapiens, UniProt P08581, Y1235D); cell-free assay, competition with immobilised ligand: 81%
Dual specificity mitogen-activated protein kinase kinase 5 (MAP2K5, Homo sapiens, UniProt Q13163); binding, competition with immobilised ligand: 68%
Dual specificity mitogen-activated protein kinase kinase 2 (MAP2K2, Homo sapiens, UniProt P36507); binding, competition with immobilised ligand: 74%
Phosphatidylinositol 4,5-bisphosphate 3-kinase catalytic subunit alpha isoform (PIK3CA, Homo sapiens, UniProt P42336, E542K); cell-free assay, competition with immobilised ligand: 52%
Casein kinase I isoform alpha-like (CSNK1A1L, Homo sapiens, UniProt Q8N752); cell-free assay, competition with immobilised ligand: 93%
Serine/threonine-protein kinase Chk2 (CHEK2, Homo sapiens, UniProt O96017); binding, competition with immobilised ligand: 96%
Fibroblast growth factor receptor 1 (FGFR1, Homo sapiens, UniProt P11362); cell-free assay, competition with immobilised ligand: 90%
Phosphatidylinositol 5-phosphate 4-kinase type-2 gamma (PIP4K2C, Homo sapiens, UniProt Q8TBX8); binding, competition with immobilised ligand: 100%
Epidermal growth factor receptor (EGFR, Homo sapiens, UniProt P00533, T790M); cell-free assay, competition with immobilised ligand: 93%
TRAF2 and NCK-interacting protein kinase (TNIK, Homo sapiens, UniProt Q9UKE5); binding, competition with immobilised ligand: 100%
Cyclin-dependent kinase 19 (CDK19, Homo sapiens, UniProt Q9BWU1); competition binding: 100%
Cyclin-dependent kinase 14 (CDK14, Homo sapiens, UniProt O94921); binding, competition with immobilised ligand: 100%
Bone morphogenetic protein receptor type-1B (BMPR1B, Homo sapiens, UniProt O00238); cell-free assay, competition with immobilised ligand: 60%
Serine/threonine-protein kinase MARK2 (MARK2, Homo sapiens, UniProt Q7KZI7); binding, competition with immobilised ligand: 100%
Inhibitor of nuclear factor kappa-B kinase subunit alpha (CHUK, Homo sapiens, UniProt O15111); cell-free assay, competition with immobilised ligand: 76%

Block 3 — species: human; medium: microsomes or S9; tested at: 2 µM; time: 0.5 h; endpoint: remaining compound
Cc1c(C(=O)Cn2nnn(-c3ccccc3)c2=O)sc2ccccc12: 97.2%
CC(C)(C)OC(=O)N1CCCCC1CCOc1ccc2c(c1)CN(c1ccc(S(C)(=O)=O)cc1F)C2=O (stereo not shown): 60.3%
CCOC(=O)c1cccc(NC(=O)N2Cc3c(sc4c3CCCC4)-n3cccc3C2c2cccc(Cl)c2)c1 (stereo not shown): 50.4%
Clc1ccc(-c2nnc3ccc(Cl)nn23)c(Cl)c1: 75.3%
COc1ccc(Nc2nnc(-c3ccc(C)c(S(=O)(=O)N4CCCCC4)c3)c3ccccc23)cc1C(N)=O: 0.163%
CCCn1nc(C)c(-c2cncn2CC(c2ccccc2Cl)N(C)C)c1C (stereo not shown): 43.1%

Block 4 — method: PI flow cytometry; time: 24 h; endpoint: S phase cells
SMILES: CC(C)C[C@@H]1NC(=O)[C@@H](N(C)C(=O)[C@H](CC2CCC2)NC(=O)[C@@H]2C[C@@H](F)CN2C(=O)C2(C(F)(F)F)CC(F)(F)C2)CCCCNC(=O)C2(CC2)NC(=O)[C@H](Cc2cc(Cl)ccc2Cl)N(C)C1=O
NCI-H1299; 2000 nM: 20.4% and 17.6% and 18.3%
NCI-H446; 200 nM: 17.1% and 26.8% and 19.4%
A549; 200 nM: 24.6% and 23.1% and 15.6%
NCI-H82; 200 nM: 36.6% and 30.7%

Some of these lines once more (block 3):
Cc1c(C(=O)Cn2nnn(-c3ccccc3)c2=O)sc2ccccc12: 97.2%
CCCn1nc(C)c(-c2cncn2CC(c2ccccc2Cl)N(C)C)c1C (stereo not shown): 43.1%
COc1ccc(Nc2nnc(-c3ccc(C)c(S(=O)(=O)N4CCCCC4)c3)c3ccccc23)cc1C(N)=O: 0.163%
CCOC(=O)c1cccc(NC(=O)N2Cc3c(sc4c3CCCC4)-n3cccc3C2c2cccc(Cl)c2)c1 (stereo not shown): 50.4%
Clc1ccc(-c2nnc3ccc(Cl)nn23)c(Cl)c1: 75.3%
